# Measured values from different studies.
# A part holds a random share of what one study measured.

# Set 1
# Target: Histamine H1 receptor (HRH1, Homo sapiens, UniProt P35367)
# Chain of UniProt P35367 (whole entry, looked up): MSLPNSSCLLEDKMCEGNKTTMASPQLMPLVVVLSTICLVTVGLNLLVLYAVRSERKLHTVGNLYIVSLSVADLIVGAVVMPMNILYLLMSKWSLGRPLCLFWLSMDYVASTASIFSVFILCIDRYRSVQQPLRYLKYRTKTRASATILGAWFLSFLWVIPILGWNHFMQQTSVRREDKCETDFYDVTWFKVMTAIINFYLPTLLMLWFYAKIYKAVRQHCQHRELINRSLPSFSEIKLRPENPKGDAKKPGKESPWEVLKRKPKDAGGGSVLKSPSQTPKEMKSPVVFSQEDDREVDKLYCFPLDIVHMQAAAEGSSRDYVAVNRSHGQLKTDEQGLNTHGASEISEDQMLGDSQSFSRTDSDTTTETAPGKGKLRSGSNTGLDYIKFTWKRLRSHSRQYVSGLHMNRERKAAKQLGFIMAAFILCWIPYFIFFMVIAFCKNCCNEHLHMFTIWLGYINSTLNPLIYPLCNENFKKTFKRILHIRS
# Read-out: ligand displacement
# Concentration: 10 µM
Compound,inhibition
NC(=O)c1ccc2nc(-c3ccc(C4(N)CCC4)cc3)c(-c3ccccc3)n2n1,30.8%
CC(=O)N1CCC(c2ccc(C(=O)NC3=NCCN3)cc2C(F)(F)F)CC1,-0.162%
Cc1c(NC(=O)c2cc(C(N)=O)nc3cc(F)ccc23)c(C(F)(F)F)nn1Cc1ccc(C#N)cc1,-37.7%
Cc1noc([C@H]2C[C@@H](c3ccc(C(F)(F)F)cc3)CN(C(=O)N3CCS(=O)(=O)C3)C2)n1,11.5%

# Set 2
# Target: Tyrosine-protein kinase Blk (BLK, Homo sapiens, UniProt P51451)
# Chain of UniProt P51451 (whole entry, looked up): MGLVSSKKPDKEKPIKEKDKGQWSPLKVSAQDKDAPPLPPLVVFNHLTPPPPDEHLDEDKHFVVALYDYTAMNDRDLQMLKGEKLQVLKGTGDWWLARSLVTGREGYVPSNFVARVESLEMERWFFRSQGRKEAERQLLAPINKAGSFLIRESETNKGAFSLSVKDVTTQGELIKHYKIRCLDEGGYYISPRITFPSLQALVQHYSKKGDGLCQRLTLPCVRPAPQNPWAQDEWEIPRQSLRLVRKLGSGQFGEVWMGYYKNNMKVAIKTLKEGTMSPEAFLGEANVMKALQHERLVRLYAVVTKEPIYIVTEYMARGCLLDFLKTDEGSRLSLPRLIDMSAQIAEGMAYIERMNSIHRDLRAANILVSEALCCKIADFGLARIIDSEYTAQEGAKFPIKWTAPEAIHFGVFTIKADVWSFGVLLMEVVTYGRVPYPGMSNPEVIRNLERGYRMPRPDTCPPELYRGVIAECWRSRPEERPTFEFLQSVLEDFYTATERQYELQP
# Read-out: enzyme activity
# Action: inhibitor
# Concentration: 0.5 µM
# Reference: control
SMILES,remaining activity [%]
CN(C)c1ccc(C=C2C(=O)Nc3ccccc32)cc1,99.2
Cc1ccc(NC(=O)c2ccc(CN3CCN(C)CC3)cc2)cc1Nc1nc(-c2cccnc2)cs1,57.5
CC(C)[C@H](CO)Nc1nc(Nc2cc(N)cc(Cl)c2)c2ncn(C(C)C)c2n1,79.6
O=C1NC(=O)C(c2cn(CCCO)c3ncccc23)=C1c1cnccn1,87.1
Nc1ccc2ncnc(NCCc3ccc(Oc4ccccc4)cc3)c2c1,97.1
O=C(Nc1cccc(Nc2cc(Nc3cccc(C(F)(F)F)c3)ncn2)c1)C1CC1,101
COc1cc2ncnc(Nc3ccc(Oc4ccccc4)cc3)c2cc1OC,9.95
Cn1sc(=O)n(Cc2ccccc2)c1=O,101
Cc1ccc(Nc2nccc(N(C)c3ccc4c(C)n(C)nc4c3)n2)cc1S(N)(=O)=O,75.6
OCC(O)CCON=C1C(c2c(O)[nH]c3ccccc23)=Nc2ccccc21 (stereo not shown),39.1
Oc1ccc(-c2nc(-c3ccncc3)c(-c3ccc(F)cc3)[nH]2)cc1,101
CO[C@H]1C[C@@H]2CC[C@@H](C)[C@@](O)(O2)C(=O)C(=O)N2CCCC[C@H]2C(=O)O[C@H]([C@H](C)C[C@@H]2CC[C@@H](O)[C@H](OC)C2)CC(=O)[C@H](C)/C=C(\C)[C@@H](O)[C@@H](OC)C(=O)[C@H](C)C[C@H](C)/C=C/C=C/C=C/1C,94.8
NCCNc1ncc(C(N)=O)c(Nc2cccc(C(F)(F)F)c2)n1,81.2
COc1ccc(OC)c2c(=S)c3ccccc3[nH]c12,96.5

# Set 3
# Target: Probable WRKY transcription factor 33, N-terminal DNA-binding domain (WRKY33, Arabidopsis thaliana, UniProt Q8S8P5, residues 169-264)
# Chain of UniProt Q8S8P5 (169-264, looked up): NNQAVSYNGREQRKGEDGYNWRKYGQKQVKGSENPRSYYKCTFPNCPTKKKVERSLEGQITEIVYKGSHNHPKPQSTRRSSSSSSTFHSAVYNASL
# Technique: DNA-protein interaction ELISA
# Molecule type: double-stranded DNA, one strand shown
# Medium: in vitro, bacterial lysate
# Concentration: not given
# Notes: whole dsDNA probe, crude lysate protein
# Reference: highest signal in screen
# Reading: higher = stronger binding
Sequence,relative absorbance
AAAAAATTCCGGCTTGACGCTGCATAAAAA,24.8 % of maximum
AAAAAATTGGCACACATGATCTCGGGAAAA,20 % of maximum
AAAAAACCCTAACGAATGCTTTTCGGAAAA,22.4 % of maximum
AAAAAAACCGATTACCATTTTTACTGAAAA,24.8 % of maximum
AAAAAATCGCGAACGTACGTCCGCGGAAAA,21.2 % of maximum
AAAAAATCATTTTATTTTGCCTTTCTAAAA,23.7 % of maximum
AAAAAACACTCACACCTATACGGCTCAAAA,20.2 % of maximum
AAAAAACACTGCACTATTGGGAGTTCAAAA,20.1 % of maximum

# Single results of other studies
SMILES,assay,system,conditions,how to read,quantity,value
CC(C)n1cnc(-c2ccc(F)cc2)c1-c1ncc(C(=O)Nc2ccc(N3CCN(C)CC3)cc2)[nH]1,phase 2a trial,idiopathic pulmonary fibrosis patients,"dose not given, adverse event grade 5, all dose arms pooled",,patients with coronary arteriosclerosis,0%
COc1ccc(-c2c(Nc3ccccn3)[nH]c3c(C4=CCCCC4)c(-c4ccccc4)nn3c2=O)cc1,,"human cancer patients, plasma","oral, 100 mg QD, median, cycle 1 day 15",reference: multiple over single dose,Cmax accumulation ratio,2.48

# Excerpt of the above (set 2):
SMILES,remaining activity [%]
CO[C@H]1C[C@@H]2CC[C@@H](C)[C@@](O)(O2)C(=O)C(=O)N2CCCC[C@H]2C(=O)O[C@H]([C@H](C)C[C@@H]2CC[C@@H](O)[C@H](OC)C2)CC(=O)[C@H](C)/C=C(\C)[C@@H](O)[C@@H](OC)C(=O)[C@H](C)C[C@H](C)/C=C/C=C/C=C/1C,94.8
OCC(O)CCON=C1C(c2c(O)[nH]c3ccccc23)=Nc2ccccc21 (stereo not shown),39.1
Nc1ccc2ncnc(NCCc3ccc(Oc4ccccc4)cc3)c2c1,97.1
O=C(Nc1cccc(Nc2cc(Nc3cccc(C(F)(F)F)c3)ncn2)c1)C1CC1,101
O=C1NC(=O)C(c2cn(CCCO)c3ncccc23)=C1c1cnccn1,87.1
